Measurements collected from several papers.
Compare with care: the assays were run in different laboratories. Several values in a cell are separate wells, animals, samples, runs or records. ± gives the spread as reported.

The Hill coefficient of CC[C@H](C)[C@H](NC(=O)[C@H](Cc1ccccc1)NC(=O)[C@@H](N)C(C)C)C(=O)N[C@@H](CC(N)=O)C(=O)N[C@H](C(=O)N[C@@H](CCCCN)C(=O)N[C@H]1CSSC[C@@H]2NC(=O)[C@H](CCCCN)NC(=O)CNC(=O)[C@H](C)NC(=O)[C@H](C)NC(=O)[C@H](CCCCN)NC(=O)CNC(=O)[C@H](C(C)C)NC(=O)[C@H](C)NC(=O)[C@H](C)NC(=O)[C@H](CCCCN)NC(=O)[C@@H]3CSSC[C@@H](C(=O)N[C@@H](Cc4ccc(O)cc4)C(=O)N4CCC[C@H]4C(=O)O)NC(=O)[C@H](CCCCN)NC(=O)[C@H](CSSC[C@H](NC(=O)[C@H](CCC(=O)O)NC(=O)[C@H](CCCCN)NC(=O)[C@H](CO)NC(=O)CNC(=O)[C@H](CCCNC(=N)N)NC1=O)C(=O)N[C@@H](CC(C)C)C(=O)N1CCC[C@H]1C(=O)N[C@@H](C)C(=O)N3)NC(=O)[C@H](CCCCN)NC(=O)CNC(=O)[C@H](CC(N)=O)NC(=O)[C@H](CCSC)NC2=O)C(C)C is reported as 1.4 (Sh (Drosophila melanogaster, UniProt P08510); toxin block destabilisation, blocker; 360 nM, together with: external K+).
With CC(=O)N[C@@H](Cc1cn([C@@H]2O[C@H](CO)[C@H](O)[C@H](O)[C@H]2O)nn1)C(N)=O the inhibition potency was 15 fold (ctxB, pentamer (Vibrio cholerae, UniProt P01556); concentration not given; relative to: galactose).
The Km of CC(C)C[C@H](NC(=O)CNC(=O)[C@H](CCCNC(=N)N)NC(=O)[C@H](CCCNC(=N)N)NC(=O)[C@H](C)NC(=O)[C@H](CCC(=O)O)NC(=O)c1ccc(N=Nc2ccc(N(C)C)cc2)cc1)C(=O)N[C@@H](CCC(=O)NCCNc1cccc2c(S(=O)(=O)O)cccc12)C(=O)N[C@@H](CCCNC(=N)N)C(=O)O is reported as ~20 µM and 18 µM (hip1 (Mycobacterium tuberculosis, UniProt P9WHR3); substrate).
Under “inactivation time constant ratio”, CC(C)C[C@@H]1NC(=O)[C@H](CCCNC(=N)N)NC(=O)[C@@H]2CCCN2C(=O)[C@@H]2CSSC[C@H](NC(=O)CNC(=O)[C@@H]3CCCN3C(=O)[C@H](CCCCN)NC(=O)[C@H](CC(=O)O)NC(=O)[C@@H](NC(=O)CN)C(C)C)C(=O)N[C@@H](CCCNC(=N)N)C(=O)N[C@@H](Cc3ccc(O)cc3)C(=O)N[C@@H](CC(C)C)C(=O)N[C@@H](Cc3ccccc3)C(=O)NCC(=O)NCC(=O)N[C@H]3CSSC[C@H](NC(=O)CNC1=O)C(=O)N[C@@H](CCCCN)C(=O)NCC(=O)N[C@@H](CCCCN)C(=O)NCC(=O)N[C@@H](Cc1c[nH]cn1)C(=O)N[C@@H](CC(=O)O)C(=O)N[C@@H](Cc1ccc(O)cc1)C(=O)N[C@H](C(=O)N[C@@H](C)C(=O)N[C@@H](Cc1c[nH]c4ccccc14)C(=O)N[C@@H](CC(=O)O)C(=O)NCC(=O)N[C@H](C(=O)N[C@@H](Cc1ccccc1)C(=O)N[C@@H](CO)C(=O)N[C@@H](CC(=O)O)C(=O)O)[C@@H](C)O)CSSC[C@H](NC(=O)[C@H](CC(=O)O)NC(=O)[C@H](CC(=O)O)NC(=O)[C@H](CC(=O)O)NC(=O)[C@H](CO)NC(=O)[C@H](CCCCN)NC3=O)C(=O)N2 is recorded as 1.05 ± 0.08 (SCN2A (Homo sapiens, UniProt Q99250); sodium current, automated patch clamp; HEK293; 1 µM, 50 ms depolarizing pulse; relative to: compound over control).
The ΔTm of CSCC[C@@H](C=O)NC(=O)[C@H](CC(C)C)NC(=O)[C@H](CC(C)C)NC(C)=O is reported as 2.53 °C (Replicase polyprotein 1ab, main protease (rep, Middle East respiratory syndrome-related coronavirus, UniProt K9N7C7); thermal stability).
CC[C@H](C)[C@@H]1NC(=O)[C@H](CCCNC(=N)N)NC(=O)[C@H](CO)NC(=O)[C@H](CCC(=O)O)NC(=O)[C@H](CC(=O)O)NC(=O)CNC(=O)CNC(=O)[C@H]([C@@H](C)O)NC(=O)[C@H](Cc2ccccc2)NC(=O)[C@H](CO)NC(=O)[C@H]([C@@H](C)O)NC(=O)[C@H](C)NC(=O)[C@@H]2CSSC[C@@H](C(=O)N[C@@H](Cc3ccc(O)cc3)C(=O)N[C@@H](Cc3ccccc3)C(=O)N[C@H](C(=O)N[C@H](C(=O)NCC(=O)O)[C@@H](C)O)[C@@H](C)O)NC(=O)[C@H]([C@@H](C)O)NC(=O)[C@H](CSSC[C@H](NC(=O)[C@H](CCC(=O)O)NC(=O)[C@H](CO)NC(=O)[C@H](CCCCN)NC(=O)[C@H](Cc3ccc(O)cc3)NC(=O)[C@@H]3CCCN3C(=O)[C@H](Cc3ccccc3)NC(=O)[C@H](CCCCN)NC(=O)[C@H](CCCNC(=N)N)NC(=O)[C@H](CCCCN)NC(=O)[C@H](CCCCN)NC(=O)[C@H](Cc3ccc(O)cc3)NC(=O)[C@@H]3CCCN3C(=O)[C@@H](NC(=O)[C@H](CC(=O)O)NC(=O)[C@H](CCCCN)NC(=O)[C@H](CCCCN)NC(=O)[C@@H](NC(=O)[C@@H](NC(=O)[C@@H](N)CCC(=O)O)C(C)C)[C@@H](C)CC)[C@@H](C)O)C(=O)N[C@@H](CC(C)C)C(=O)N[C@@H](CCCCN)C(=O)N[C@@H](C)C(=O)N2)NC(=O)[C@H](CCCCN)NC(=O)[C@H](Cc2ccccc2)NC(=O)[C@H](Cc2ccccc2)NC(=O)CNC(=O)[C@@H]2CCCN2C(=O)[C@H](CCCCN)NC(=O)CNC(=O)[C@H](CCC(=O)O)NC(=O)[C@H](CCC(N)=O)NC1=O gave a Hill slope of 1.76 ± 0.08 (KCNQ4 (Homo sapiens, UniProt P56696, D288A); potassium current, whole-cell patch clamp; HEK-293T).
For CSCC[C@H](NC(=O)[C@H](CCN)NC(=O)[C@@H](NC(=O)[C@H](Cc1c[nH]c2ccccc12)NC(=O)[C@H](CCCNC(=N)N)NC(=O)[C@@H](N)CCNc1ccc([N+](=O)[O-])cc1[N+](=O)[O-])[C@@H](C)O)C(=O)N[C@@H](CC(C)C)C(N)=O, the inhibition was 0% (Botulinum neurotoxin type D (botD, Clostridium botulinum D phage, UniProt P19321); enzyme activity, inhibitor; concentration not given).
The IC50 ratio of CCC1(CC)Cc2ccccc2-c2nc(NCCO)[nH]c(=O)c21 is reported as 30 fold (Serum paraoxonase/arylesterase 1 (Pon1, Mus musculus, UniProt P52430); enzyme activity, inhibitor; 15% mouse serum, together with: paraoxon; relative to: mouse serum over purified PON1).
With CCCCCCCCCCCCCCCc1cccc(O)c1C(=O)O the kon was 124 M⁻¹ s⁻¹ (Spike glycoprotein (Severe acute respiratory syndrome coronavirus 2, UniProt P0DTC2); binding, biolayer interferometry).
O=[N+]([O-])c1cccc(O[C@H]2O[C@H](CO)[C@H](O)[C@H](O)[C@H]2O)c1 has a Hill slope of -1.02 (ctxB (Vibrio cholerae, UniProt P01556); binding).
